Measured values gathered from unrelated publications.
Each line is one published result; not all experiments were run side by side. Numbers after ± are the reported error.
U2AF2: U2AF2 148-342 (Homo sapiens, UniProt P26368)
Sequence of UniProt P26368 (whole entry, looked up): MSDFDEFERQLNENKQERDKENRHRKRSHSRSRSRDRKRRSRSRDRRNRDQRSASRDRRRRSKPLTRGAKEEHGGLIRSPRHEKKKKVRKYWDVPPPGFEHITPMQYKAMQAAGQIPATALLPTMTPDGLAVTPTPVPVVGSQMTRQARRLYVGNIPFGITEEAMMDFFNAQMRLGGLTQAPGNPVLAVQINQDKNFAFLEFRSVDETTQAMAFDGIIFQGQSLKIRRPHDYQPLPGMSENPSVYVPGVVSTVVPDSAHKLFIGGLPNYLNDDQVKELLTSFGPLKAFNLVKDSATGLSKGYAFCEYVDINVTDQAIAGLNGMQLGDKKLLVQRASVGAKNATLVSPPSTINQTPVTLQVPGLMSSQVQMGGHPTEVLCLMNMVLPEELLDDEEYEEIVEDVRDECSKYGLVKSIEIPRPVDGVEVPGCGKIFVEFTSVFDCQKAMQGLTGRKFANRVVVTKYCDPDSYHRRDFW
B1: clcA 1-465 C85A/I422A/L423A/I426A/L430A/L434A (Escherichia coli, UniProt P37019); chain MKTDTPSLETPQAARLRRRQLIRQLLERDKTPLAILFMAAVVGTLVGLAAVAFDKGVAWLQNQRMGALVHTADNYPLLLTVAFLASAVLAMFGYFLVRKYAPEAGGSGIPEIEGALEDQRPVRWWRVLPVKFFGGLGTLGGGMVLGREGPTVQIGGNIGRMVLDIFRLKGDEARHTLLATGAAAGLAAAFNAPLAGILFIIEEMRPQFRYTLISIKAVFIGVIMSTIMYRIFNHEVALIDVGKLSDAPLNTLWLYLILGIIFGIFGPIFNKWVLGMQDLLHRVHGGNITKWVLMGGAIGGLCGLLGFVAPATSGGGFNLIPIATAGNFSMGMLVFIFVARVITTLLCFSSGAPGGIFAPMLALGTVLGTAFGMVAVELFPQYHLEAGTFAIAGMGALLAASIRAPLTGIILVLEMTDNYQLAAPMAITGAGATALAQFTGGKPLYSAILARTLAKQEAEQLARSK
B2: unc-116 (Caenorhabditis elegans, UniProt P34540); sequence looked up; chain MEPRTDGAECGVQVFCRIRPLNKTEEKNADRFLPKFPSEDSISLGGKVYVFDKVFKPNTTQEQVYKGAAYHIVQDVLSGYNGTVFAYGQTSSGKTHTMEGVIGDNGLSGIIPRIVADIFNHIYSMDENLQFHIKVSYYEIYNEKIRDLLDPEKVNLSIHEDKNRVPYVKGATERFVGGPDEVLQAIEDGKSNRMVAVTNMNEHSSRSHSVFLITVKQEHQTTKKQLTGKLYLVDLAGSEKVSKTGAQGTVLEEAKNINKSLTALGIVISALAEGTKSHVPYRDSKLTRILQESLGGNSRTTVIICASPSHFNEAETKSTLLFGARAKTIKNVVQINEELTAEEWKRRYEKEKEKNTRLAALLQAAALELSRWRAGESVSEVEWVNLSDSAQMAVSEVSGGSTPLMERSIAPAPPMLTSTTGPITDEEKKKYEEERVKLYQQLDEKDDEIQKVSQELEKLRQQVLLQEEALGTMRENEELIREENNRFQKEAEDKQQEGKEMMTALEEIAVNLDVRQAECEKLKRELEVVQEDNQSLEDRMNQATSLLNAHLDECGPKIRHFKEGIYNVIREFNIADIASQNDQLPDHDLLNHVRIGVSKLFSEYSAAKESSTAAEHDAEAKLAADVARVESGQDAGRMKQLLVKDQAAKEIKPLTDRVNMELTTLKNLKKEFMRVLVARCQANQDTEGEDSLSGPAQKQRIQFLENNLDKLTKVHKQLVRDNADLRVELPKMEARLRGREDRIKILETALRDSKQRSQAERKKYQQEVERIKEAVRQRNMRRMNAPQIVKPIRPGQVYTSPSAGMSQGAPNGSNA
B3: Creb1 270-341 (Rattus norvegicus, UniProt P15337-1); sequence looked up; chain SSPALPTQPAEEAARKREVRLMKNREAARECRRKKKEYVKCLENRVAVLENQNKTLIEELKALKDLYCHKSD
B4: SPOP D140N (Homo sapiens, UniProt O43791); sequence looked up; chain MSRVPSPPPPAEMSSGPVAESWCYTQIKVVKFSYMWTINNFSFCREEMGEVIKSSTFSSGANDKLKWCLRVNPKGLDEESKDYLSLYLLLVSCPKSEVRAKFKFSILNAKGEETKAMESQRAYRFVQGKDWGFKKFIRRNFLLDEANGLLPDDKLTLFCEVSVVQDSVNISGQNTMNMVKVPECRLADELGGLWENSRFTDCCLCVAGQEFQAHKAILAARSPVFSAMFEHEMEESKKNRVEINDVEPEVFKEMMCFIYTGKAPNLDKMADDLLAAADKYALERLKVMCEDALCSNLSVENAAEILILADLHSADQLKTQAVDFINYHASDVLETSGWKSMVVSHPHLVAEAYRSLASAQCPFLGPPRKRLKQS
B5: protein 2478-3541 (Micromonospora chalcea, UniProt A0A1Z1MZ77); sequence looked up; chain HPLLGGAVELPDRGGHVYPARLGVRHHPWLGEHALLGAAILPGAAYAELALWAGRRDGAGRIEELTLDAPLVVADESAAQLRLVVGPADAEGRRQLTVHSRADGADADTAWTRHAQGTLVPADADAAWSGEPGAPWPPAGAEPVEVAGLYDRFADRGYQYGPSFRGVRAAWRAGDTVYAEVALPVPQPGSPRFGVHPALLDAAFQAMSLGAFFPEDGQVRMPFALRGVSSSGVGADRLRVTISPAGAEAVRIACVDERGNPVVVIDSLVARAVPVEALTPGTPGIPGAGDGALHHVAWTARPEPGVAAVQRWAVVGAADPGLAGGLDRAGGLCGAYPDLAALVAAVAEGAALPDVVAVPVPSGAPVGPDAVRATVLGALDLIRAWLAVEGRLGLARLAFVTTSAVAVGDGTEHVDPVSAALWGLVRSAQSEEPGRFVLVDLDADPASASALPAALAAREPQLAVRAGAVHVPRLVRHRPRPDGPLTPPAGAAWRLAAGGQGTLEGLALVPAPDAEAPLTPGQVRVAVRAAGVNFRDTLIALGMYPGTPVLGAEGAGVITEVAPDVAGFAPGDRVLGMWTGGLGPVAVADARMLARVPRGWSYAEAASVPAVFLTAHYALTRLAGIRPGQSLLVHAGAGGVGMATLQLARHLGVEVYATASRGKWDTLRGLGLDDAHIADSRSLDFAGRFLAATGGRGVDVVLNSLAGDFVDASLRLLPRGGHFLELGKADVRDPDRIAADHPGVGYRAFDLVEAGPELVGQLLGELMELFAAGVLSPLPLTVRDVRRAREAFRLISQARHVGKVVLTMPPAFGAYGTVLVTGGTGTLGGAVARHLVARHGVRHLVLAGRSGPAADGASALVDELTASGASVTVVACDAADRVALRRLLDGIPAAHPLTAVVHAAGVLDDATITALTAGQVDAVLRPKADAVVNLHELTRDRELSAFVLFSSAAALFGSPGQGNYSAANGFVDAFAQYRRAQGLHAVSLAWGLWADSSRMAGHLDQEGMRRRMARGGVLPLTTDQGLALFDAAQLVDEALQVPIRLNVGALRAAGKVPALLADLV
B6: S100A5 (Homo sapiens, UniProt P33763); sequence looked up; chain METPLEKALTTMVTTFHKYSGREGSKLTLSRKELKELIKKELCLGEMKESSIDDLMKSLDKNSDQEIDFKEYSVFLTMLCMAYNDFFLEDNK
B7: ADAR1 127-end 127-1226 W1022A (human, UniProt P55265); sequence looked up; chain SSHFQELSIYQDQEQRILKFLEELGEGKATTAHDLSGKLGTPKKEINRVLYSLAKKGKLQKEAGTPPLWKIAVSTQAWNQHSGVVRPDGHSQGAPNSDPSLEPEDRNSTSVSEDLLEPFIAVSAQAWNQHSGVVRPDSHSQGSPNSDPGLEPEDSNSTSALEDPLEFLDMAEIKEKICDYLFNVSDSSALNLAKNIGLTKARDINAVLIDMERQGDVYRQGTTPPIWHLTDKKRERMQIKRNTNSVPETAPAAIPETKRNAEFLTCNIPTSNASNNMVTTEKVENGQEPVIKLENRQEARPEPARLKPPVHYNGPSKAGYVDFENGQWATDDIPDDLNSIRAAPGEFRAIMEMPSFYSHGLPRCSPYKKLTECQLKNPISGLLEYAQFASQTCEFNMIEQSGPPHEPRFKFQVVINGREFPPAEAGSKKVAKQDAAMKAMTILLEEAKAKDSGKSEESSHYSTEKESEKTAESQTPTPSATSFFSGKSPVTTLLECMHKLGNSCEFRLLSKEGPAHEPKFQYCVAVGAQTFPSVSAPSKKVAKQMAAEEAMKALHGEATNSMASDNQPEGMISESLDNLESMMPNKVRKIGELVRYLNTNPVGGLLEYARSHGFAAEFKLVDQSGPPHEPKFVYQAKVGGRWFPAVCAHSKKQGKQEAADAALRVLIGENEKAERMGFTEVTPVTGASLRRTMLLLSRSPEAQPKTLPLTGSTFHDQIAMLSHRCFNTLTNSFQPSLLGRKILAAIIMKKDSEDMGVVVSLGTGNRCVKGDSLSLKGETVNDCHAEIISRRGFIRFLYSELMKYNSQTAKDSIFEPAKGGEKLQIKKTVSFHLYISTAPCGDGALFDKSCSDRAMESTESRHYPVFENPKQGKLRTKVENGEGTIPVESSDIVPTADGIRLGERLRTMSCSDKILRWNVLGLQGALLTHFLQPIYLKSVTLGYLFSQGHLTRAICCRVTRDGSAFEDGLRHPFIVNHPKVGRVSIYDSKRQSGKTKETSVNWCLADGYDLEILDGTRGTVDGPRNELSRVSKKNIFLLFKKLCSFRYRRDLLRLSYGEAKKAARDYETAKNYFKKGLKDMGYGNWISKPQEEKNFYLCPV
B8: ADRB1 W183A (Homo sapiens, UniProt P08588); sequence looked up; chain MGAGVLVLGASEPGNLSSAAPLPDGAATAARLLVPASPPASLLPPASESPEPLSQQWTAGMGLLMALIVLLIVAGNVLVIVAIAKTPRLQTLTNLFIMSLASADLVMGLLVVPFGATIVVWGRWEYGSFFCELWTSVDVLCVTASIETLCVIALDRYLAITSPFRYQSLLTRARARGLVCTVAAISALVSFLPILMHWWRAESDEARRCYNDPKCCDFVTNRAYAIASSVVSFYVPLCIMAFVYLRVFREAQKQVKKIDSCERRFLGGPARPPSPSPSPVPAPAPPPGPPRPAAAAATAPLANGRAGKRRPSRLVALREQKALKTLGIIMGVFTLCWLPFFLANVVKAFHRELVPDRLFVFFNWLGYANSAFNPIIYCRSPDFRKAFQGLLCCARRAARRRHATHGDRPRASGCLARPGPPPSPGAASDDDDDDVVGATPPARLLEPWAGCNGGAAADSDSSLDEPCRPGFASESKV

B1  binding (itself; SEC): binds
B2 (unc-116)  dimer particles (itself; mass photometry): 82 % peak
CUCUUUUUC (ssRNA)  Kd (U2AF2; sequencing of bound RNA; RNA; motif only): 4.45 µM
B3 (Creb1 270-341)  Kd (itself; mass photometry): 0.015 µM
B4 (SPOP D140N)  binding (itself; negative-stain TEM): binds
RQIVDAQAVCTRCKESADFWCFECEQLLCAKCFEAHQWFLKHEARPLAE (PML 120-168 (Homo sapiens, UniProt P29590-1); sequence looked up)  Kd (itself; AUC): 115 ± 5 µM
B5 (protein 2478-3541)  binding (itself; X-ray crystallography): binds
GUUCCAUUA (ssRNA)  Kd (U2AF2; sequencing of bound RNA; RNA; motif only): 6.34 µM
Tropomyosin beta chain (human)  log2 fold change (PP6C (human); co-immunoprecipitation, IP-MS; CYB5R4 knockout cells; concentration not given; reference: CYB5R4 knockout over parental): 0.72
B6 (S100A5)  Kd (itself; AUC; without Ca2+ unclear, together with: Ca2+): 75 ± 15 µM
B7 (ADAR1 127-end 127-1226 W1022A)  binding (itself; SEC): binds
B8 (ADRB1 W183A)  BRET50 (itself; BRET; W183A mutant; higher = weaker self-association): 4.1 GFP/Rluc ratio

Excerpt of the above:
B7 (ADAR1 127-end 127-1226 W1022A)  binding (itself; SEC): binds
